Experimental data of several laboratories.
Values joined by “and” are separate records of one study, mostly repeats; a detail may differ. Numbers after ± are the reported error. In brackets after ≈: the same amount, converted by molar mass.

CN(C)C(=O)c1cncc(-c2cnc3[nH]cc(-c4cc(OS(=O)(=O)F)ccc4C(F)(F)F)c3c2)c1 — hydrolytic half-life (HPLC; 50 µM, 37 °C, no lysine, followed to 24 h): > 24 h
CCCCCCCCCCCCCCCC(=O)N[C@@H](CCC(=O)NCCOCCOCCC(=O)NCCOCCOCCC(=O)NCCCC[C@H](NC(=O)[C@H](CC(=O)O)NC(=O)[C@H](CC(C)C)NC(=O)[C@H](Cc1ccc(O)cc1)NC(=O)[C@H](CCCCN)NC(=O)[C@H](CO)NC(=O)[C@H](Cc1ccc(O)cc1)NC(=O)[C@H](CC(=O)O)NC(=O)[C@H](CO)NC(=O)[C@@H](NC(=O)[C@H](Cc1ccccc1)NC(=O)[C@@H](NC(=O)CNC(=O)[C@H](CCC(N)=O)NC(=O)[C@@H](CO)NC(=O)[C@@H](N)Cc1c[nH]cn1)[C@@H](C)O)[C@@H](C)O)C(=O)N[C@@H](CCCNC(=N)N)C(=O)N[C@@H](CCCNC(=N)N)C(=O)N[C@@H](C)C(=O)N[C@@H](CCC(N)=O)C(=O)N[C@@H](CC(=O)O)C(=O)N[C@@H](Cc1ccccc1)C(=O)N[C@H](C(=O)N[C@@H](CCC(N)=O)C(=O)N[C@@H](Cc1c[nH]c2ccccc12)C(=O)N[C@@H](CC(C)C)C(=O)N[C@@H](CC(C)C)C(=O)N[C@@H](CC(N)=O)C(=O)N[C@H](C(=O)NCC(=O)NCC(=O)N1CCC[C@H]1C(=O)N[C@@H](CO)C(=O)N[C@@H](CO)C(=O)NCC(=O)N[C@@H](C)C(=O)N1CCC[C@H]1C(=O)N1CCC[C@H]1C(=O)N1CCC[C@H]1C(=O)N[C@@H](CO)C(N)=O)[C@@H](C)O)C(C)C)C(=O)O — total cholesterol (rhesus monkey, female; subcutaneous, 60 µg/kg once daily, 28 days): 2.74 ± 0.54 mmol/L
CN1C(=O)[C@@H]2NC(=O)[C@@H]3NC(=O)[C@@H](c4ccc(O)cc4)NC(=O)[C@H](NC(=O)C(N)c4ccc(O)cc4)Cc4c[nH]c5cc(ccc45)-c4cc3cc(c4O)Oc3ccc(cc3)C[C@H]1C(=O)N[C@@H](C(=O)NCCCN)c1ccc(O)c(c1)Oc1ccc2cc1 (some centres unmarked) — thermodynamic solubility (saline; 24 h, 25 °C): 0.0284 mg/mL (≈ 24.1 µM)
CC[C@H](C)[C@H](NC(=O)[C@H](CCCCN)NC(=O)CNC(=O)[C@H](CC(C)C)NC(=O)[C@H](Cc1ccccc1)NC(=O)[C@H](CCCCN)NC(=O)[C@H](CO)NC(=O)[C@H](Cc1ccccc1)NC(=O)[C@H](Cc1c[nH]c2ccccc12)NC(=O)[C@H](CCC(N)=O)NC(=O)[C@@H](NC(=O)[C@H](Cc1ccccc1)NC(=O)CCCCCNC(=O)CN1CCN(CC(=O)O)CCN(CC(=O)O)CCN(CC(=O)O)CC1)C(C)C)C(=O)N[C@@H](CCC(=O)O)C(=O)N1CCC[C@H]1C(=O)N[C@@H](CC(=O)O)C(=O)N[C@H](C(=O)N[C@@H](CO)C(=O)N[C@@H](CCC(N)=O)C(=O)N[C@H](C(=O)N[C@@H](CCC(N)=O)C(=O)N[C@@H](CC(=O)O)C(=O)N1CCC[C@H]1C(=O)N[C@@H](CC(N)=O)C(=O)N[C@@H](CC(=O)O)C(=O)N[C@@H](CCC(N)=O)C(=O)N[C@@H](Cc1ccc(O)cc1)C(=O)N[C@@H](CCC(=O)O)C(=O)N1CCC[C@H]1C(=O)N[C@@H](Cc1ccccc1)C(=O)O)C(C)C)C(C)C [copper-64 labelled] — tissue uptake (C57BL/6 mice, male, tumour-free, stomach; 0.5 h): 2.83 ± 0.9 %ID/g
CN1Cc2cc(Cl)ccc2-n2c(nnc2C2CCN(c3cccc([18F])n3)CC2)C1 — tissue uptake (C57BL/6 mouse male, testis; intravenous, 3.7 MBq, 60 min): 1.54 ± 1.51 %ID/g
CC[C@H](C)[C@H](NC(=O)[C@H](CCCNC(=N)N)NC(=O)[C@H](CCCCN)NC(=O)[C@H](Cc1ccc(O)cc1)NC(=O)[C@H](CC(=O)O)NC(=O)[C@H](C)NC(=O)CNC(=O)CCOCCOCCOCCNC(=O)CN1CCN(CC(=O)O)CCN(CC(=O)O)CCN(CC(=O)O)CC1)C(=O)N[C@H](C(=O)N[C@H](C(=O)N[C@@H](CCCCN)C(=O)N[C@H](C(=O)N[C@@H](CC(N)=O)C(N)=O)C(C)C)C(C)C)[C@@H](C)O [copper-64 labelled] — tissue uptake (ex vivo gamma counting; C57BL/6J male mice, B16-F10 tumour, thymus; intravenous, 1.85 MBq, 40 min): 0.938 ± 0.047 %ID/g
C#Cc1c(F)ccc2cc(O)cc(-c3ncc4c(N5CC6CCC(C5)N6C(=O)OC(C)OC(=O)[C@@H](N)C(C)C)nc(OC[C@@]56CCCN5C[C@H](F)C6)nc4c3F)c12 (some centres unmarked) — compound remaining (chemical stability; simulated intestinal fluid; 1 µM, 30 min): 93%
CCc1nn(C)c2nc(-c3ccc(C(=O)O)cc3)nc(NCc3ccccc3)c12 — body weight (NSG mice; dose not given, day 7 of treatment): 23 g and 22 g and 24.2 g and 23.5 g
C=C/C=C/C[C@@H](C)[C@@H](O)[C@H]1C(=O)N[C@@H](CC)C(=O)N(C)CC(=O)N(C)[C@@H](CC(C)C)C(=O)N[C@@H](C(C)C)C(=O)N(C)[C@@H](CC(C)C)C(=O)N[C@@H](C)C(=O)N[C@H](C)C(=O)N(C)[C@@H](CC(C)C)C(=O)N(C)[C@@H](CC(C)C)C(=O)N(C)[C@@H](C(C)C)C(=O)N1C — plasma K+ level (Wistar Kyoto rat, male, plasma; ip, 0.5 mg/kg/day, day 18): 5.2 ± 0.2 mmol/L
CC(C)[C@@H]1NC(=O)CNC(=O)[C@H](CC(N)=O)NC(=O)[C@H](CCCNC(=N)N)NC(=O)[C@H](Cc2ccc(O)cc2)NC(=O)[C@H](C(C)C)NC(=O)[C@@H](NC(=O)[C@@H](NC(=O)[C@H](CC(N)=O)NC(=O)[C@H](Cc2c[nH]c3ccccc23)NC(=O)[C@H](C)NC(=O)[C@H](Cc2ccccc2)NC(=O)CNC(=O)[C@H](CCCCN)NC(=O)[C@H](Cc2ccccc2)NC(=O)[C@H](Cc2ccccc2)NC(=O)[C@H](CCCCN)NC(=O)OCC2c3ccccc3-c3ccccc32)C(C)C)CSSC[C@@H](C(=O)N[C@@H](Cc2c[nH]cn2)C(=O)N[C@@H](CCCNC(=N)N)C(=O)N[C@@H](CCCNC(=N)N)C(=O)N[C@@H](C)C(=O)N[C@@H](CC(N)=O)C(N)=O)NC(=O)[C@H](C(C)C)NC(=O)[C@H](CCCNC(=N)N)NC1=O — ALT (ICR mouse, blood; intramammary, 10 mg/kg, day 5, 3 d dosing): 45.9 ± 1.74 IU/L
CC(=O)N[C@H](C(=O)N[C@@H](CCCC(=O)OC(C)(C)C)C(=O)N[C@@H](CCC1CCCCC1)C(=O)N[C@@H](CC(=O)O)C(=O)COC(=O)c1c(C)cccc1C)C(C)(C)C — blood concentration (C57BL/6N mouse, female, whole blood; intraperitoneal, dose not given, 0.5 h): 772 µM and 656 µM
[2H]C([2H])([2H])C1(C([2H])([2H])[2H])NC(=O)N(c2ccc(F)c(C(C)(F)F)c2)C1=O — MTD (beagle dog, male and female; oral, single dose): > 150 mg/kg
Cc1ccc(OCC(=O)N(Cc2cccs2)c2ccn[nH]2)cc1 — micronucleated PCEs (in vivo micronucleus; Crl:CD-1(ICR) mice, female, bone marrow polychromatic erythrocytes; oral, 1000 mg/kg/day, 3 days): 0%
C/C(=N\OCCCN1CCCCC1)c1ccc(C(F)(F)F)cc1 — plasma concentration (C57BL/6 mouse, plasma; oral, 10 mg/kg, 4 h): 0.0867 ± 0.0229 µg/mL
O=C1NC2(CC2)COc2ncc(F)cc2[C@H]2COCCN2c2ccn3ncc1c3n2 — serum total protein (Sprague-Dawley rat, male, serum; oral, 5 mg/kg/day, end of treatment, 4-week subacute toxicity): 57.2 ± 2.4 g/L
C[C@@H](Nc1c(-c2c(F)cc(C#N)cc2F)c(Cl)nc2ncnn12)C(C)(C)C — maximum tolerated dose (CD-1 mice, both sexes; intraperitoneal, 3 weeks, twice weekly): ≥ 20 mg/kg
CN[C@H](CC(C)C)C(=O)N[C@H]1C(=O)N[C@@H](CC(N)=O)C(=O)N[C@H]2C(=N)N[C@H]3C(=O)N[C@H](C(=O)N[C@H](C(=O)NCCCNC(=N)N)c4cc(O)cc(O)c4-c4cc3ccc4O)[C@H](O)c3ccc(c(Cl)c3)Oc3cc2cc(c3O[C@@H]2O[C@H](CO)[C@@H](O)[C@H](O)[C@H]2O[C@H]2C[C@](C)(NCc3ccc(-c4ccc(Cl)cc4)cc3)[C@H](O)[C@H](C)O2)Oc2ccc(cc2Cl)[C@H]1O — volume of distribution (mouse; intravenous, 25 mg/kg): 0.21 L/kg

Excerpt of the above:
CN(C)C(=O)c1cncc(-c2cnc3[nH]cc(-c4cc(OS(=O)(=O)F)ccc4C(F)(F)F)c3c2)c1 — hydrolytic half-life (HPLC; 50 µM, 37 °C, no lysine, followed to 24 h): > 24 h
CCCCCCCCCCCCCCCC(=O)N[C@@H](CCC(=O)NCCOCCOCCC(=O)NCCOCCOCCC(=O)NCCCC[C@H](NC(=O)[C@H](CC(=O)O)NC(=O)[C@H](CC(C)C)NC(=O)[C@H](Cc1ccc(O)cc1)NC(=O)[C@H](CCCCN)NC(=O)[C@H](CO)NC(=O)[C@H](Cc1ccc(O)cc1)NC(=O)[C@H](CC(=O)O)NC(=O)[C@H](CO)NC(=O)[C@@H](NC(=O)[C@H](Cc1ccccc1)NC(=O)[C@@H](NC(=O)CNC(=O)[C@H](CCC(N)=O)NC(=O)[C@@H](CO)NC(=O)[C@@H](N)Cc1c[nH]cn1)[C@@H](C)O)[C@@H](C)O)C(=O)N[C@@H](CCCNC(=N)N)C(=O)N[C@@H](CCCNC(=N)N)C(=O)N[C@@H](C)C(=O)N[C@@H](CCC(N)=O)C(=O)N[C@@H](CC(=O)O)C(=O)N[C@@H](Cc1ccccc1)C(=O)N[C@H](C(=O)N[C@@H](CCC(N)=O)C(=O)N[C@@H](Cc1c[nH]c2ccccc12)C(=O)N[C@@H](CC(C)C)C(=O)N[C@@H](CC(C)C)C(=O)N[C@@H](CC(N)=O)C(=O)N[C@H](C(=O)NCC(=O)NCC(=O)N1CCC[C@H]1C(=O)N[C@@H](CO)C(=O)N[C@@H](CO)C(=O)NCC(=O)N[C@@H](C)C(=O)N1CCC[C@H]1C(=O)N1CCC[C@H]1C(=O)N1CCC[C@H]1C(=O)N[C@@H](CO)C(N)=O)[C@@H](C)O)C(C)C)C(=O)O — total cholesterol (rhesus monkey, female; subcutaneous, 60 µg/kg once daily, 28 days): 2.74 ± 0.54 mmol/L
